Measurements of several laboratories.
Numbered parts are unrelated; each lists some results of a single study. Values joined by “and” are separate records of one study, mostly repeats; a detail may differ.
UniProt P48729, sequence (whole entry, looked up): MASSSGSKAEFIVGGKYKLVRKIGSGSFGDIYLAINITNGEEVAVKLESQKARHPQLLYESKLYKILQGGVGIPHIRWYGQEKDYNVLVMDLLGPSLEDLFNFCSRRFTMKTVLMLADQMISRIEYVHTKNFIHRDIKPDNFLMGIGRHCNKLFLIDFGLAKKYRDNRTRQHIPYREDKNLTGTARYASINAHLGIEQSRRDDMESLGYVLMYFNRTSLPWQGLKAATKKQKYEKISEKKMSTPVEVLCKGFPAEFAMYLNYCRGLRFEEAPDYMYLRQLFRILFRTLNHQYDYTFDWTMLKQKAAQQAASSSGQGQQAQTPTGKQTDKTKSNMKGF
UniProt P10721, sequence (whole entry, unmodified, looked up): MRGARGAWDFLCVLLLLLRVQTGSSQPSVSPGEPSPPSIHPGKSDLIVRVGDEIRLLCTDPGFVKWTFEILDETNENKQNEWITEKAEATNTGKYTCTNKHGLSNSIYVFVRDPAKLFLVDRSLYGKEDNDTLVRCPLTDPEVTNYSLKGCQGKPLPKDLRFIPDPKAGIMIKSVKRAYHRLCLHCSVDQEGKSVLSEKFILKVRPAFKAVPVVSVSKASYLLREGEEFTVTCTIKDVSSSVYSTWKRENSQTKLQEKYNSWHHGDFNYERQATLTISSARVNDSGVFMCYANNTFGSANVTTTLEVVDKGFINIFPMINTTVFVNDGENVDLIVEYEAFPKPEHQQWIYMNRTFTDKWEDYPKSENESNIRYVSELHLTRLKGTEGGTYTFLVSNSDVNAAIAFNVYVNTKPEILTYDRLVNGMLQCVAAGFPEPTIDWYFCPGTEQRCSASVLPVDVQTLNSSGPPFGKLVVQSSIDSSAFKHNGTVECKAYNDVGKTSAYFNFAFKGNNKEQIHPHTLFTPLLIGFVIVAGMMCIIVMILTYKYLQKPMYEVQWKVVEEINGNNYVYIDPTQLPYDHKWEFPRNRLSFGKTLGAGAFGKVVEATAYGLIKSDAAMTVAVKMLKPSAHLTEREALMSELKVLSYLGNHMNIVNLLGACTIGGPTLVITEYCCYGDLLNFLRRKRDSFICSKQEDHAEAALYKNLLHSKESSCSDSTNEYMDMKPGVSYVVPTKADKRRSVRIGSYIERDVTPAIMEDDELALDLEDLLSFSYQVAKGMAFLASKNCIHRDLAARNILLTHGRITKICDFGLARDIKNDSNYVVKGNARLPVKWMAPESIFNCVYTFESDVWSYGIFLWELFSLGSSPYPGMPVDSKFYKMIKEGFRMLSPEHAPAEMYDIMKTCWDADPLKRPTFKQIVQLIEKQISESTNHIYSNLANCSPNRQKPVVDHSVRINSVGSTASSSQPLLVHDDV

Sample 1 — concentration: 1 µM
Structure (SMILES): C[C@H]1CC[C@H](n2c3cnccc3c3cnc(Nc4ccc5c(n4)CCN(C(=O)CO)C5)nc32)CC1
target	assay	remaining binding
ABL2 (Homo sapiens, UniProt P42684)	binding, competition with immobilised ligand	87%
STK26 (Homo sapiens, UniProt Q9P289)	binding, competition with immobilised ligand	19%
ERBB3 (Homo sapiens, UniProt P21860)	binding, competition with immobilised ligand	84%
TTK (Homo sapiens, UniProt P33981)	binding, competition with immobilised ligand	4.6%
Ribosomal protein S6 kinase alpha-2, C-terminal kinase domain (RPS6KA2, Homo sapiens, UniProt Q15349)	binding, competition with immobilised ligand	91%
Non-receptor tyrosine-protein kinase TYK2, JH2 (TYK2, Homo sapiens, UniProt P29597)	binding, competition with immobilised ligand	13%
Aurora kinase C (AURKC, Homo sapiens, UniProt Q9UQB9)	cell-free assay, competition with immobilised ligand	34%
HCK (Homo sapiens, UniProt P08631)	cell-free assay, competition with immobilised ligand	74%
EPHB1 (Homo sapiens, UniProt P54762)	cell-free assay, competition with immobilised ligand	74%
MAP3K13 (Homo sapiens, UniProt O43283)	binding, competition with immobilised ligand	100%
STK10 (Homo sapiens, UniProt O94804)	binding, competition with immobilised ligand	100%
RPS6KA5 (Homo sapiens, UniProt O75582)	binding, competition with immobilised ligand	88%
SIK1 (Homo sapiens, UniProt P57059)	binding, competition with immobilised ligand	56%
Ribosomal protein S6 kinase alpha-6, C-terminal kinase domain (RPS6KA6, Homo sapiens, UniProt Q9UK32)	binding, competition with immobilised ligand	42%
ABL1 (Homo sapiens, UniProt P00519, Q252H)	–	73%
CDK15 (Homo sapiens, UniProt Q96Q40)	binding, competition with immobilised ligand	27%

Sample 2 — mode: degrader
SMILES: O=C1CCC(N2Cc3cc(C4CCN(Cc5ccccc5)CC4)ccc3C2=O)C(=O)N1 (stereo not drawn)
CRBN/Zinc finger protein Helios: CRBN/Zinc finger protein Helios (Homo sapiens, UniProt Q96SW2+Q9UKS7)
UniProt Q96SW2, sequence (whole entry, looked up): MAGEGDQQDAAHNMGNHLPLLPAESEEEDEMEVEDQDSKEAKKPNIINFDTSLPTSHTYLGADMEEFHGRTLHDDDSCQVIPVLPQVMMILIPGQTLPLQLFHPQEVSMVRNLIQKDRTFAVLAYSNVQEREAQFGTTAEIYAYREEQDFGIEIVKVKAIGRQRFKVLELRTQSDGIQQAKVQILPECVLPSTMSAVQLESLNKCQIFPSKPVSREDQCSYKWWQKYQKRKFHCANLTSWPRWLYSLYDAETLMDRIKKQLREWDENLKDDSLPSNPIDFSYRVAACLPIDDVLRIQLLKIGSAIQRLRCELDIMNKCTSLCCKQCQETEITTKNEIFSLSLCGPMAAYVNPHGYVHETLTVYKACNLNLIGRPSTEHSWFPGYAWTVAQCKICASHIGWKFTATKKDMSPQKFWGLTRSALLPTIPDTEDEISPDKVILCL
SALL4: Sal-like protein 4 (SALL4, Homo sapiens, UniProt Q9UJQ4)
UniProt Q9UJQ4, sequence (whole entry, looked up): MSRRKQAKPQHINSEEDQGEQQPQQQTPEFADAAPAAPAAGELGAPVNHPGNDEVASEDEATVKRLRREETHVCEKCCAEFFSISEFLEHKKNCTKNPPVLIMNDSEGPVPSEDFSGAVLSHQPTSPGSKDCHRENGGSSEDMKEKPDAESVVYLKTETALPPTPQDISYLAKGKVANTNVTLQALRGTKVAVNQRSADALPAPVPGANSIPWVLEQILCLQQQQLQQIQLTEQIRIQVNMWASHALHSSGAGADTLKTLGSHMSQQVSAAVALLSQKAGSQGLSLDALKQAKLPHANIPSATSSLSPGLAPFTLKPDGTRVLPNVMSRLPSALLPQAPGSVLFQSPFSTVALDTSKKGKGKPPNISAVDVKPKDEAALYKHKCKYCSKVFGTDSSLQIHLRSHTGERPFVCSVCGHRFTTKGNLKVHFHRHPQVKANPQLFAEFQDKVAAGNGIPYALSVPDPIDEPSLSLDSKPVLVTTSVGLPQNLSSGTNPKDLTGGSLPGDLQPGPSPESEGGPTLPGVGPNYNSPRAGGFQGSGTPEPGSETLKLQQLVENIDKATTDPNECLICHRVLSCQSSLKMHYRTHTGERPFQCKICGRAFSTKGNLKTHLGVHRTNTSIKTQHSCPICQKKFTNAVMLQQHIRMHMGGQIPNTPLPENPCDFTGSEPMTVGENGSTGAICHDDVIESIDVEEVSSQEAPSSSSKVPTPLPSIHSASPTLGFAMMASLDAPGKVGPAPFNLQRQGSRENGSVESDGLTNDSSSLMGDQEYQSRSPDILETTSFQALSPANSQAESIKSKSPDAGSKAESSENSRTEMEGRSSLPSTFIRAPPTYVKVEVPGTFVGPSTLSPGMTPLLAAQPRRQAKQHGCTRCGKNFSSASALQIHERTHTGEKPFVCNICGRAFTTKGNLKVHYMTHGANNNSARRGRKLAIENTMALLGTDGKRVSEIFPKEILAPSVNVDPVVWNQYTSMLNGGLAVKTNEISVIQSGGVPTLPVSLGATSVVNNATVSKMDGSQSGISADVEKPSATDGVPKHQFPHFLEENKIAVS
Zinc finger protein Aiolos: Zinc finger protein Aiolos (Homo sapiens, UniProt Q9UKT9)
UniProt Q9UKT9, sequence (whole entry, looked up): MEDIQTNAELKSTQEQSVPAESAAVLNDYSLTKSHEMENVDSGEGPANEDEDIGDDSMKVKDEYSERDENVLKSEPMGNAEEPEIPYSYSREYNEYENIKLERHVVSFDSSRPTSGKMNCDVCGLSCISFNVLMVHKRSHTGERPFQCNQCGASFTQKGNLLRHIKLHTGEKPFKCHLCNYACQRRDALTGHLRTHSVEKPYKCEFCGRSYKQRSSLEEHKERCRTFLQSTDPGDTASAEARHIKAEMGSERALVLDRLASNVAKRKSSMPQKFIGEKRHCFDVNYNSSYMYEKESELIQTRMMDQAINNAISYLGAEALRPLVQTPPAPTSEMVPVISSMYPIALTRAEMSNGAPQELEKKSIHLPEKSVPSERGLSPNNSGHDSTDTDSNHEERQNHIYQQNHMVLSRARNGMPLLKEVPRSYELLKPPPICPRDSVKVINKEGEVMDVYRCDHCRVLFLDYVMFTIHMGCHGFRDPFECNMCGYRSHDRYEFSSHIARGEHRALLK
DNA-binding protein Ikaros: DNA-binding protein Ikaros (Homo sapiens, UniProt Q13422)
UniProt Q13422, sequence (whole entry, looked up): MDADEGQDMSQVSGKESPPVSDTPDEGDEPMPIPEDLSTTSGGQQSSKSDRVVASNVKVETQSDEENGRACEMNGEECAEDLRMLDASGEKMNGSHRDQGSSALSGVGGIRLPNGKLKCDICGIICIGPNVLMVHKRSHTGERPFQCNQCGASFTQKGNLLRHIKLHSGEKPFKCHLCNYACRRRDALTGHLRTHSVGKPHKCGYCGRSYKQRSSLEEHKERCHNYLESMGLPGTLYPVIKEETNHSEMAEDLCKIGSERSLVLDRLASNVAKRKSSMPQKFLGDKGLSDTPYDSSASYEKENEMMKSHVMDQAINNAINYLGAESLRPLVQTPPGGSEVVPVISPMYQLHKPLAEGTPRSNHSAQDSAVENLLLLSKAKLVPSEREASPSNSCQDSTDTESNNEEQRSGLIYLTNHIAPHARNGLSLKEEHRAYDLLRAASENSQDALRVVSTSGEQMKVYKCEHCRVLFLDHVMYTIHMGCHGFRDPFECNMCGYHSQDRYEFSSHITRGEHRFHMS
IKZF4: Zinc finger protein Eos (IKZF4, Homo sapiens, UniProt Q9H2S9)
UniProt Q9H2S9, sequence (whole entry, looked up): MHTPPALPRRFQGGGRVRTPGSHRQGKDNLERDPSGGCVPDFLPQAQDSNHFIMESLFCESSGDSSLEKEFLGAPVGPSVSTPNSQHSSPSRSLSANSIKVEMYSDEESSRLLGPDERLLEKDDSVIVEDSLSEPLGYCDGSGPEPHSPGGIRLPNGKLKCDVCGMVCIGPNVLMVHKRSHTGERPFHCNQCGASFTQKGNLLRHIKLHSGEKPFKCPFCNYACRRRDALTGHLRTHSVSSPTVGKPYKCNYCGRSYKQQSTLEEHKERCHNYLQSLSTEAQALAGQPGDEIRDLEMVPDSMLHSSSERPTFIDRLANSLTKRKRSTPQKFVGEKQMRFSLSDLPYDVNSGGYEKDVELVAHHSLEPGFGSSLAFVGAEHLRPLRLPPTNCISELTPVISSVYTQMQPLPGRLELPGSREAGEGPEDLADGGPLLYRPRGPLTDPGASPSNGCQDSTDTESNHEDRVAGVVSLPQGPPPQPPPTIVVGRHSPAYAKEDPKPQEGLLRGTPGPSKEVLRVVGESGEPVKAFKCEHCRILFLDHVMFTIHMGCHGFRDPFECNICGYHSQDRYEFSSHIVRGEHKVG
target	assay	test system	conditions	remaining protein
CRBN/Zinc finger protein Helios	flow cytometry	primary human regulatory T cells	0.0004572 µM, 3 h	104%
SALL4	HiBiT	HEK293	0.0005081 µM	77.9% and 79.5%
Zinc finger protein Aiolos	HiBiT	HEK293	3.333 µM	83.1% and 82.8%
Zinc finger protein Aiolos	HiBiT	HEK293	0.001524 µM	90.8% and 88.9%
SALL4	HiBiT	HEK293	0.01372 µM, 6 h	59.7%
DNA-binding protein Ikaros	HiBiT	HEK293	0.001524 µM, 6 h	90.1%
IKZF4	HiBiT	HEK293	0.0004572 µM, 6 h	118%
IKZF4	HiBiT	HEK293	0.1111 µM, 6 h	118%
DNA-binding protein Ikaros	HiBiT	HEK293	3.333 µM, 6 h	92.1%
CSNK1A1 (Homo sapiens, UniProt P48729)	HiBiT	HEK293 HiBiT-CK1α	41.15 nM	85.7% and 91.6%
IKZF4	HiBiT	HEK293	0.001372 µM, 3 h	113%
DNA-binding protein Ikaros	HiBiT	HEK293	0.01372 µM, 6 h	94.7%
CRBN/Zinc finger protein Helios	flow cytometry	primary human regulatory T cells	0.001372 µM, 3 h	104%
IKZF4	HiBiT	HEK293	0.0004572 µM, 3 h	112%
IKZF4	HiBiT	HEK293	0.03704 µM, 6 h	118%
SALL4	HiBiT	HEK293	0.01372 µM	59.7% and 60.7%

Sample 3 — observed: enzyme activity; mode: inhibitor; concentration: 0.5 µM; relative to: control
Target: Serine/threonine-protein kinase 25 (STK25, Homo sapiens, UniProt O00506)
UniProt O00506, sequence (whole entry, looked up): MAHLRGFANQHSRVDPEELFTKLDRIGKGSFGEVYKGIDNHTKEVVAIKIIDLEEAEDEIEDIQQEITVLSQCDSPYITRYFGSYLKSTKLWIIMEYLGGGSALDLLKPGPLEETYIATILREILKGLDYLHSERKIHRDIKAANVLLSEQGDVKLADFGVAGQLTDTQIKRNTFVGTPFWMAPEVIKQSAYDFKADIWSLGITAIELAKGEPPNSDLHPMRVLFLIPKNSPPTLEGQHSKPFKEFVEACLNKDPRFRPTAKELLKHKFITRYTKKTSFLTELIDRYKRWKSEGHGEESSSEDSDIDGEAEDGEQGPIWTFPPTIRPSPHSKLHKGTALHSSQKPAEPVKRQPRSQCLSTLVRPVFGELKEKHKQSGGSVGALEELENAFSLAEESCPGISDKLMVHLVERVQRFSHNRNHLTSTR
Compound	remaining activity [%]
COc1ccc(OC)c2c(=S)c3ccccc3[nH]c12	96.2
Cc1cccc(-c2[nH]c(C(C)(C)C)nc2-c2ccc3c(c2)OCO3)n1	104
Cc1ccc(NC(=O)c2ccc(CN3CCN(C)CC3)cc2)cc1Nc1nc(-c2cccnc2)cs1	95.5
CN(C)c1ccc(C=C2C(=O)Nc3ccccc32)cc1	90.2
O=C(O)c1ccc2c3c1cccc3c(=O)n1c3ccccc3nc21	104
Cn1c2ccccc2c2c3c(c4c5ccccc5n(CCC#N)c4c21)CNC3=O	83.9
CO[C@H]1C[C@@H]2CC[C@@H](C)[C@@](O)(O2)C(=O)C(=O)N2CCCC[C@H]2C(=O)O[C@H]([C@H](C)C[C@@H]2CC[C@@H](O)[C@H](OC)C2)CC(=O)[C@H](C)/C=C(\C)[C@@H](O)[C@@H](OC)C(=O)[C@H](C)C[C@H](C)/C=C/C=C/C=C/1C	129
Cn1sc(=O)n(Cc2ccccc2)c1=O	96.2
Nc1ccc2ncnc(NCCc3ccc(Oc4ccccc4)cc3)c2c1	116
COc1cc2nccc(Oc3ccc(NC(=S)NC(=O)c4ccccc4C)cc3)c2cc1OC	103
OCC(O)CCON=C1C(c2c(O)[nH]c3ccccc23)=Nc2ccccc21 (stereo not drawn)	74
Oc1ccc(-c2nc(-c3ccncc3)c(-c3ccc(F)cc3)[nH]2)cc1	115
COc1ccc(CNC(=O)Nc2ncc([N+](=O)[O-])s2)cc1	98.6
NCCNc1ncc(C(N)=O)c(Nc2cccc(C(F)(F)F)c2)n1	97.7
Nc1ncnc2n[nH]c(Nc3ccc(F)cc3)c12	112

Sample 4 — observed: cell-free assay; method: competition with immobilised ligand; concentration: 1 µM
Compound: Cc1noc([C@H]2C[C@@H](c3ccc(C(F)(F)F)cc3)CN(C(=O)N3CCS(=O)(=O)C3)C2)n1
target	remaining binding [%]
FGFR3 (Homo sapiens, UniProt P22607)	100
STK32B (Homo sapiens, UniProt Q9NY57)	68
RAF1 (Homo sapiens, UniProt P04049)	100
Mast/stem cell growth factor receptor Kit, autoinhibited (KIT, Homo sapiens, UniProt P10721)	84
MAPK8 (Homo sapiens, UniProt P45983)	77
CSNK1G3 (Homo sapiens, UniProt Q9Y6M4)	100
MAP2K7 (Homo sapiens, UniProt O14733)	100
KIT (Homo sapiens, UniProt P10721, V559D)	100
AKT1 (Homo sapiens, UniProt P31749)	90
ROCK1 (Homo sapiens, UniProt Q13464)	100
PKN1 (Homo sapiens, UniProt Q16512)	100
NEK11 (Homo sapiens, UniProt Q8NG66)	100
PRKCQ (Homo sapiens, UniProt Q04759)	87
Ribosomal protein S6 kinase alpha-6, N-terminal kinase domain (RPS6KA6, Homo sapiens, UniProt Q9UK32)	98
FLT3 (Homo sapiens, UniProt P36888, F691L/ITD)	100
MYLK3 (Homo sapiens, UniProt Q32MK0)	100

For quick reference, copied from above (sample 4):
target	remaining binding [%]
MAPK8 (Homo sapiens, UniProt P45983)	77
CSNK1G3 (Homo sapiens, UniProt Q9Y6M4)	100
MAP2K7 (Homo sapiens, UniProt O14733)	100
KIT (Homo sapiens, UniProt P10721, V559D)	100
AKT1 (Homo sapiens, UniProt P31749)	90
ROCK1 (Homo sapiens, UniProt Q13464)	100
